# Results collected from several papers.
# Parts stem from different laboratories: compare values within a part only.

# Sample 1
# Target: Histone acetyltransferase KAT6A, both winged helices, GST fusion (KAT6A, Homo sapiens, UniProt Q92794, residues 1-181)
# Technique: protein binding microarray
# Molecule type: double-stranded DNA, one strand shown
# Matrix: in vitro
# Tested at: not given
# Setting: 8-mer, flanks averaged, mean of 2 arrays, mostly near background
# Baseline: not given
# Direction: higher = stronger binding
# Target sequence (chain): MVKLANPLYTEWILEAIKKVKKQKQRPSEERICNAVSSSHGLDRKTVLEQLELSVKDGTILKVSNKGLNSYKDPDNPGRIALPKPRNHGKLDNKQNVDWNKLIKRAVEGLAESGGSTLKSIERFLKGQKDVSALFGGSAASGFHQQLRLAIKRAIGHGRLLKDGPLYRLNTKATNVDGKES
Sequence,E-score
GCCCTCCC,-0.0274
GCCGCATA,0.255
ATCCTGAA,-0.134
AAAAAGTG,-0.0799
TGAGCCCA,-0.192
ACCCTAGC,-0.0678
AGAAGAAC,-0.0789
ACTCACAA,-0.2
CACGCTGA,0.0872
ACGCCCAT,0.0249
TAGCCAGA,-0.128
AATCGACA,-0.0557
AATCGAAC,-0.0428
AGGGAACA,-0.0865
GCTTTAGA,-0.128
CTATTCAG,-0.187
AACACTGT,-0.0147
GGCTTCGA,0.0448
GGCCCACC,-0.0106

# Sample 2
# Target: Fragile X messenger ribonucleoprotein 1, C-terminal low-complexity region (Fmr1, Mus musculus, UniProt P35922)
# Technique: RNA Bind-n-Seq
# Molecule type: RNA
# Matrix: in vitro
# Tested at: 200 nM
# Setting: whole 134-nt RNA, ends assumed
# Together with: 150 mM KCl
# Baseline: input library
# Direction: higher = stronger binding
# Shared flanks, not repeated: GGGAGUUCUACAGUCCGACGAUC … UGGAAUUCUCGGGUGUCAAGG
Sequence,log2 enrichment
UCCUGUGCUACACAUCGUAUGUACCGAAUCAAACCCCCCCAAACCCCCAAAUUUUUAAAAAAGUAUUAUGUUACGCCGUUCGGAUCUGCA,0.0547
AGUCCUGUGCUACACAUCGUAUGUACCGAAUCGGGGUUUUGGGGUUUUGGGUUUUGGAAAGUAUUAUGUUACGCCGUUCGGAUCUGCACU,0.104
CCUCAAGUCCUGUGCUACACAUCGUAUGUACCGAAUCGGUGGAAAGGAAAGGAAAGUAUUAUGUUACGCCGUUCGGAUCUGCACUUCCAG,0.0951
AAGUCCUGUGCUACACAUCGUAUGUACCGAAUCGGGGUUUUGGUUUUGGGGUUUUGGAAAGUAUUAUGUUACGCCGUUCGGAUCUGCACU,-0.305
AAGUCCUGUGCUACACAUCGUAUGUACCGAAUCGGGAAAGGGAGGGUUUUUUUGGGAAAGUAUUAUGUUACGCCGUUCGGAUCUGCACUU,0.777
UGGCCCUGGUGGCAUGCGGGGAGGACGAGGUGGCCUCAUGGAUCGUGGUGGUCCCGGUGGAAUGUUCAGAGGUGGCCGUGGUGGAGACAG,-0.0611
UGGGAGGUGGAUUUUGUUUAUUUUCUUAGCUCAUUUCCAGGGGUGGGAAUUUUUUUUUAAUAUGUGUCAUGAAUAAAGUUGUUUUUGAAA,0.21
UUAAGUUGAAGGAGCGCUACCGCAACGUGCUGGACACCAUGUUCGAGCUGCUGCCCCGGAUGGCCAGGUACUGCCAGCCCCCACCCUGGC,-0.378
UCCUGUGCUACACAUCGUAUGUACCGAAUCGGGGUUUUUUGGUUUUUUGGGGUUUUUUGGAAAGUAUUAUGUUACGCCGUUCGGAUCUGC,0.0113
CAAGUCCUGUGCUACACAUCGUAUGUACCGAAUCGGAAAGGGGAAAGGGGAAAGGGAAAGUAUUAUGUUACGCCGUUCGGAUCUGCACUU,0.145
UGGACCUGGUGGCAUGCGGGGAGGAAGAGGUGGCCUCAUGGAUCGUGGUGGUCCCGGUGGAAUGUUCAGAGGUGGCCGUGGUGGAGACAG,0.432
CUCAAGUCCUGUGCUACACAUCGUAUGUACCGAAUCGGGUGGGAAAGGGAGGGAAAGUAUUAUGUUACGCCGUUCGGAUCUGCACUUCCA,1.19
AAGUCCUGUGCUACACAUCGUAUGUACCGAAUCGGAAAAAAAGGAAAGGAAAAAGGAAAGUAUUAUGUUACGCCGUUCGGAUCUGCACUU,-0.909
UUUCUUCUGCUGCUGCUAGUCAUGAGAUCAAGGUGGGUCUGAGAAUGGCCAUUCAGAGGCCCUGGAUAGUAACCAGGUAAUGGAUGACAC,-0.661

# Sample 3
# Target: RNA binding protein fox-1 homolog 2, RRM domain, GST-SBP tag (RBFOX2, Homo sapiens, UniProt O43251-10, residues 100-194)
# Technique: RNA Bind-n-Seq
# Molecule type: RNA
# Matrix: in vitro
# Tested at: 365 nM
# Setting: natural RNA segment, single round, ends assumed
# Baseline: no-protein control
# Direction: higher = stronger binding
# Shared flanks, not repeated: GGGAGUUCUACAGUCCGACGAUC … UGGAAUUCUCGGGUGCCAA
# Residues (chain): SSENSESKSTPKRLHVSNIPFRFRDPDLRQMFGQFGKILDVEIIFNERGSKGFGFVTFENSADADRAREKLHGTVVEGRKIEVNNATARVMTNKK
Sequence,RBNS enrichment (R)
AGGCCUCUCCCUCACUGUCAGCACCAGCUGGUAAAGGUGACUGUGCAGAUGUGCAUUUUCCUUUUGGUAGAAAUGGUCCACAGCACUAACUGGUAAGGCUUAUUGUACAG,0.398
UUACUGUUGCUUUGGUGUGUCUUGAAGUUUGAUUGAUUAUUUUUGGUCAUUGAGUUCUUAGUGUAGUUUGCUAGAUGAUUAUUAAGAUUCUUUUGUGUCUGACACUUGUG,2.87
GGGCUGCCUUCCGCCUGGGGCUCCCUGUGACCUCUCAGUCCCCUGGCCCGGCCAGCCACCGUCCCCAGCACCCAAGCAUGCAAUUGCCUGUCCCCCCCGGCCAGCCUCCC,4.09
AGGUGAGGCCUGCUGUGCUGCCCGCACACCUGAGUGCAAAACCAAGCACUGUGGGCAUGGUGUUUCCCUCUCUGGGGUAGAGUACGCCCUCUCGCUGGGCAAAGAGGAAG,0.28
UUGUAGAAUUGUUAUAGAUUACCGUGCAUUAGCACAGAUUUUAAUUGUCAUGAUUGCAGACUACAGAUCUGCUUUUUGAAAUGAAAUUUAAACAUUAAAAAUGGAACUGU,0.591
CGGGACAGAUGGACAGACAGCCACCCUGAGAACCCCUCUGGGAAAAUCUAUUCCUGCCACCACUGGGCAAACAGAAGAAUUUUUCUGUCUUUGGAGAGUAUUUUAGAAAC,0.485
GAUACCAAGACCUGUCUGUUGGAUCUGUUUUGUUGAGAUAAACUGAUGUCCUUACAUUUCAUUUGUACCUAAACCAUUUGCUAUCGUUUAGACUUUCCACCCCCCACCCC,0.302
AAUCUUCCCUUUGUUGACUGGCCUUCACAGCCAUGGCUGGUGACAACAGAGGAUCGUUGAGAUUGAGCAGCGCUUGGUGAUCUCUCAGCAAACAACCCCUGCCCGUGGGC,0.502
GUCUCCUGCAUCCAAAUGUCCUCUUUGGCUCAAAAAGUAGGCCAGGCAUGGUGGUUCAUGCCUGUAAUAGCACUUUGGGAGACUGAGGUGGGAGGAUCACUUGGGGCCAG,0.571
GCUGGUCAAGCCCCCUUUGAUUGAGUUCAUCAUGAGCCGUUGCUAAUGCCAGGCCAGUAAAAGUAUAACAGCAAAUAACCAUUGGUUAAUCUGGACUUAUUUUUGGACUU,0.355
GUCAUAUGAAGUAGAUGUGCAAUCAUGUAGACAGCAGGCCAAGGUGAUCAGUGGCUAAAGUUGAAAAGGGGUUGGUUUCUUUCAUAUAUGUAUGUGUGUGUACAUGCGCA,1.03
UUGAUCCAGAGUCCUUGUUUCCUUGACUUGCUCCACCAGCCCUGCACCAGCUUUCCAAAUGCACUCUGCUUGUGUUGAAAUUCUCCCAUUUUUAUUUGGGCAUAAAAGUU,0.982

# Sample 4
# Target: RING finger protein unkempt homolog, zinc fingers 1-6, GST-SBP tag (UNK, Homo sapiens, UniProt Q9C0B0, residues 30-357)
# Chain of UniProt Q9C0B0 (30-357, looked up): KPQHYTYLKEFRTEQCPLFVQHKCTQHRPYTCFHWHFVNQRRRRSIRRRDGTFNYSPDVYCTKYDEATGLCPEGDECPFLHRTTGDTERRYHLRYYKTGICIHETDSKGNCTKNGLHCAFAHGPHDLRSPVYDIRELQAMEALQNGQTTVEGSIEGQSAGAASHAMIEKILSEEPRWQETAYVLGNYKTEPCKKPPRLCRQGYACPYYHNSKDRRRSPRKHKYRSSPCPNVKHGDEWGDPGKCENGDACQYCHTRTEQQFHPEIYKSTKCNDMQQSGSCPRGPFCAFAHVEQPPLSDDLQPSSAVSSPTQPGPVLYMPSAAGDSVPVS
# Technique: RNA Bind-n-Seq
# Molecule type: RNA
# Matrix: in vitro
# Tested at: not given
# Setting: RNA with constant flanks, human and mouse sites, ends assumed
# Baseline: input RNA pool
# Direction: higher = stronger binding
# Shared flanks, not repeated: GGGAGUUCUACAGUCCGACGAUC … CAACAGAGGAUUGAGCAUCA
Sequence,bound/input enrichment
CCUUGGCGGAUUGUAAGCUGCUGGUUUUGCGGCUGGGAAGAGCGGCGAGAGGGUUCGGCAUUUUUCGUCGGGAUCCCCGCAAGGAUGAGUGCUGCCAGAGAGUCUCACCCGCAUGGGGUG,0.147 ratio
CAGGAAACCCUGGGAGAGUCUGGGAGUUUACUUCCAAAUAAAUUGAAUAAGUUGUUACAGAGGUUUCCUAACAAACCUUACCUCAGCUGAAAAUGGACAAGUAUUUUCAAUGACUGAAAU,0.261 ratio
AAGAACAUGCUCCUAUAAGAAGUAGUUUGAAUAGCCAACCACCCACAGAGGAAAAGGAAAUCAAGUUAAAAAAUAGACAUUCAUUGGAAAUAUCGUCUGCUCUGAAUAUGUUUAACAUUG,2.72 ratio
GCACAAAUCUUUCCCACUAGCCAUUUAAUAAGUUAAAAAAAGAUACAAAAACAAAAACCUACUAGUCUUGAACAAACUGUCAUACGUAUGGGACCUACACUUAAUCUAUAUGCUUUACAC,48.3 ratio
GAAUUUGGACAAGUUUUGGCUUCCUGUUCUUUUGACCGAACAGCAGCUGUAUGGGAAGAAAUAGUGGGAGAAUCAAACGAUAAACUUCGAGGACAGAGUCACUGGGUGAAGAGGACAACU,0.154 ratio
ACUGACACCAUGAUUCAGACUCCUGGCCCCCUGCCAGCACCACAACUCACAUCCACUGUACUGCGGGAGAACAGUCGGCCCAUGGGAGACCAGAUUCAAGAACCUGAGUCUGAACAUGGU,0.15 ratio
CCCCACCCCUUUGCCUCUUUCCACCCGGGCCUCAACCCUUUGGAGCGGGAGAGACUGGCACUAGCAGGUCCUCAGCUGCGGCCUGAGAUGAGUUACCCAGACAGACUGGCAGCCGAGCGC,0.108 ratio
AUGGGCUUUGAUGCUGUUAUCCAUAAUCCUGACCCUCUCCCUGUUUUAACUGACACCUUGUUUCUGACUGUUACGGCGUCACUGACUUUGCCAUGGGACCAUAUCCAAAGCACAUUGCUG,0.173 ratio
UAUUCCAUAAAACAAGAAGGACAAAACUCUCAAAAAUGUAUUUCAAGUCAGUGACCAGAAAAAUCCCACCCCUUGCCCUUUCCCCAAAGGACCUUUUCUGUACAUGACACUUUUUUGUUG,0.675 ratio
UUCAGUCCUAGCUUUUGUGUGGCCAUAAAAAUAGAUUUACUUAAAGUGCACUGUCUGGUCAUCUGACUUGCAACCUUCAAUCAGCACUAAAAUUAAAACAUGGAACAAAAUUUGUGCUGA,0.903 ratio
AACAGUAGUACAGCUAUUGGGAUCAGAUGUAAAGAUGGUGUUGUGUUUGGGGUAGAAAAACUAGUCCUUUCUAAACUUUAUGAAGAAGGCUCCAAUAAACGUCUUUUUAAUGUUGAUCGA,0.458 ratio

# For quick reference, copied from above (sample 2):
Sequence,log2 enrichment
AGUCCUGUGCUACACAUCGUAUGUACCGAAUCGGGGUUUUGGGGUUUUGGGUUUUGGAAAGUAUUAUGUUACGCCGUUCGGAUCUGCACU,0.104
CCUCAAGUCCUGUGCUACACAUCGUAUGUACCGAAUCGGUGGAAAGGAAAGGAAAGUAUUAUGUUACGCCGUUCGGAUCUGCACUUCCAG,0.0951
AAGUCCUGUGCUACACAUCGUAUGUACCGAAUCGGGGUUUUGGUUUUGGGGUUUUGGAAAGUAUUAUGUUACGCCGUUCGGAUCUGCACU,-0.305
AAGUCCUGUGCUACACAUCGUAUGUACCGAAUCGGGAAAGGGAGGGUUUUUUUGGGAAAGUAUUAUGUUACGCCGUUCGGAUCUGCACUU,0.777
UGGCCCUGGUGGCAUGCGGGGAGGACGAGGUGGCCUCAUGGAUCGUGGUGGUCCCGGUGGAAUGUUCAGAGGUGGCCGUGGUGGAGACAG,-0.0611
UGGGAGGUGGAUUUUGUUUAUUUUCUUAGCUCAUUUCCAGGGGUGGGAAUUUUUUUUUAAUAUGUGUCAUGAAUAAAGUUGUUUUUGAAA,0.21
